Measurements from different studies.
Every numbered part comes from another study and shows a few of its results, in no order. Values joined by “and” are separate records of one study, mostly repeats; a detail may differ.

Block 1
Cell line: HaCaT
Tested at: 100 µM
Time: 18 h
`CC(C)N(CCC(C(N)=O)(c1ccccc1)c1ccccn1)C(C)C` (stereo not drawn) gave a viability of 113%.
`Cc1c(N)nc([C@H](CC(N)=O)NC[C@H](N)C(N)=O)nc1C(=O)N[C@H](C(=O)N[C@H](C)[C@@H](O)[C@H](C)C(=O)N[C@H](C(=O)NCCc1nc(-c2nc(C(=O)NCCC[S+](C)C)cs2)cs1)[C@@H](C)O)[C@@H](O[C@@H]1O[C@@H](CO)[C@@H](O)[C@H](O)[C@@H]1O[C@H]1O[C@H](CO)[C@@H](O)[C@H](OC(N)=O)[C@@H]1O)c1c[nH]cn1` has a viability of 93.1%.
For `Cc1cccc([C@H](C)c2cnc[nH]2)c1C`, the viability was 114%.
With `Oc1cccc2cccnc12` the viability was 70.1%.
With `C[C@@H]1O[C@@H](O[C@H]2C[C@@H](O)[C@]3(CO)[C@H]4[C@H](O)C[C@]5(C)[C@@H](C6=CC(=O)OC6)CC[C@]5(O)[C@@H]4CC[C@]3(O)C2)[C@H](O)[C@H](O)[C@H]1O` the viability was 30.5%.
For `O=P1(N(CCCl)CCCl)NCCCO1` (stereo not drawn), the viability was 107%.
The viability of `Cc1ccc(-n2nccn2)c(C(=O)N2CCN(c3nc4cc(Cl)ccc4o3)CC[C@H]2C)c1` is reported as 49.9%.

Block 2
SMILES: CC(C)S(=O)(=O)c1cc2c(Nc3ccc4sc(C5CCCC5)nc4c3)ccnc2cc1OCCO
Method: CCK-8
For L929 RIPK3-/- reexpressing RIPK3 K51A/R69H; 12.5 µM, together with: zVAD: survival read 79.7% and 76.6% and 75.7% and 82.7%.
The survival was 89.1% and 94% and 96.1% (L929 RIPK3-/- reexpressing RIPK3 K51A/R69H; 1.563 µM, together with: zVAD).
It gave 96.2% and 93% and 92.9% and 94% and 86.1% for survival (L929 RIPK3-/- reexpressing RIPK3 K51A/R69H; 6.25 µM).
The survival was 40.5% and 40.4% and 50.3% and 48.1% (L929 RIPK3-/- reexpressing RIPK3 K51A; 25 µM, together with: zVAD).
L929 RIPK3-/- reexpressing RIPK3 K51A/R69H; 3.125 µM, together with: zVAD — survival: 87.6% and 92.3% and 96.5% and 91.5% and 95.9%.

Single results of other studies
`[N-]=[N+]=CC(=O)CC[C@H](N)C(=O)O` has a haematocrit of 24.2% and 21.8% and 13.5% (C57BL/6 CES1-/- mouse; intravenous, 1 mg/kg).
With `COc1cc2c(cc1O)CC1c3c(cc(O)c(OC)c3-2)CCN1C` (stereo not drawn) the remaining compound was 49.8% (mouse, microsomes or S9; 2 µM, 0.5 h).
The haematocrit of `CC(=O)N[C@@H](Cc1c[nH]c2ccccc12)C(=O)N[C@@H](CCC(=O)C=[N+]=[N-])C(=O)OC(C)C` is reported as 20.4% and 22% and 23.4% (C57BL/6 CES1-/- mouse; intravenous, 1 mg/kg).
